Experimental data collected from several papers.
± gives the spread as reported.
UniProt P08684, sequence (whole entry, looked up): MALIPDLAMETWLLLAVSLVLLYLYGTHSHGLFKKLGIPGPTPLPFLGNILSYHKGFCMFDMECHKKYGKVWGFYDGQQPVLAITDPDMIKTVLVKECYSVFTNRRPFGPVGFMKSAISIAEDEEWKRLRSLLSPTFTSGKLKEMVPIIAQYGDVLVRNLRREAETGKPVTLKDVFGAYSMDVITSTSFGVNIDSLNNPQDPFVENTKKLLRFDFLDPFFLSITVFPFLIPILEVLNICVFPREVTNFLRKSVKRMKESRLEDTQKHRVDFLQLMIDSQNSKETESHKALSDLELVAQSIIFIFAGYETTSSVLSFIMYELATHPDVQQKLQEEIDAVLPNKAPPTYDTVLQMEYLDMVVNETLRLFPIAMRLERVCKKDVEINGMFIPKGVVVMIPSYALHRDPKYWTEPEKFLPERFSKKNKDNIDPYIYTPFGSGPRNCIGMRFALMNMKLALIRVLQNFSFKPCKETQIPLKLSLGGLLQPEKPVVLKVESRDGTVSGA

O=c1c2cc([N+](=O)[O-])ccc2n(CCO)n1Cc1ccccc1 — selectivity index (Leishmania amazonensis; mouse peritoneal macrophages; intracellular amastigotes; baseline: CC50 macrophages over IC50 amastigotes): 2
COc1cc(N(C)CCN(C)C)c(NC(=O)CCSCC(NC(C)=O)C(=O)O)cc1Nc1nccc(-c2cn(C3CC3)c3ccccc23)n1 (centres unmarked) — share of radioactivity (radio-HPLC; human, feces; dose not given, 0 to 48 h, sample holds 45.32% dose; baseline: sample radioactivity): 2.45%
COc1cc(OC)cc(C2=C3C(C)=C(I)C(C)=[N+]3[B-](F)(F)n3c(/C=C/c4c[nH]c5ccc([N+](=O)[O-])cc45)c(I)c(C)c32)c1 — Stokes shift (dichloromethane): 629 cm⁻¹
C=C(C)C(=O)Nc1ccc(-c2c(-c3ccc(Oc4nccc(C)n4)cc3)c3c(N)ncnc3n2C)cc1 — Vd (beagle dog, plasma; intravenous): 1.2 L/kg
CCCC(CCC)NC(=O)c1ccc(O)c(OS(=O)(=O)O)c1 — peak area (LC-MS extracted ion chromatogram; Sprague-Dawley rat, male and female, pooled plasma; oral, 200 mg/kg, 1 h): 515000 cps
CCC1CNC(CC)CN(C(C(=O)O)c2ccc(C(=O)O)cc2)C(CC)CN(CC(=O)O)C(CC)CN1 (centres unmarked) — sum log K3 + log K4 (pH-potentiometric titration; 25 °C, 0.1 M KCl): 8
O=C(CCCCC[N+]#[C][99Tc-5]([C]#[N+]CCCCCC(=O)N[C@H]1C(O)O[C@H](CO)[C@@H](O)[C@@H]1O)([C]#[N+]CCCCCC(=O)N[C@H]1C(O)O[C@H](CO)[C@@H](O)[C@@H]1O)([C]#[N+]CCCCCC(=O)N[C@H]1C(O)O[C@H](CO)[C@@H](O)[C@@H]1O)([C]#[N+]CCCCCC(=O)N[C@H]1C(O)O[C@H](CO)[C@@H](O)[C@@H]1O)[C]#[N+]CCCCCC(=O)N[C@H]1C(O)O[C@H](CO)[C@@H](O)[C@@H]1O)N[C@H]1C(O)O[C@H](CO)[C@@H](O)[C@@H]1O (some centres unmarked) — tumour/non-tumour ratio (SPECT/CT; BALB/c nude mouse PANC-1 xenograft; 2 h; baseline: tumour over non-tumour): 5.51 ± 0.79
COc1cc(CNC(=O)C[C@H](C)CCC=C(C)C)ccc1OCc1cn(-c2ccccc2F)nn1 — growth percent (OVCAR-8 ovarian cancer cells; SRB; 10 µM, 48 h): 66.5%
CC(C)C[C@@H](NC(=O)[C@H](NC(=O)[C@H]1CCCN1)[C@H](C)O)C(=O)N[C@H](Cc1c[nH]cn1)C(=O)N[C@@H](C(=O)N[C@H](Cc1c[nH]cn1)C(=O)N[C@H](CC(N)=O)C(=O)N[C@H](CCCNC(=N)N)C(=O)N[C@H](CCCNC(=N)N)C(=O)N[C@H](CCCNC(=N)N)C(=O)N[C@H](CCCNC(=N)N)C(=O)N[C@H](CCCNC(=N)N)C(N)=O)[C@H](C)O — beta half-life (Beagle dog, plasma; oral, 20 mg/kg single dose, from mean plasma levels): 0.56 h
[64Cu+2].c1ccc(CNCc2ccc(CN3CCCN4CCNCCCN(CC4)CC3)cc2)nc1 — tissue uptake (CXCR4; NOD/SCID mouse, U87 and U87-stb-CXCR4 xenografts, lungs; iv, 120 min, ex vivo): 6.57 ± 2.5 %ID/g
COCCOCCOCCOCCOCCOCCOCCOCCC(=O)NCCCc1cc2cc3nc(cc4[nH]c(cc5nc(c(OC)c1[nH]2)C(=O)C5(C)C)cc4CCc1ccc(C(=O)O)cc1)CC3(C)C — internal conversion yield (water with 5% DMF; room temperature): 0.45
O=C1c2sc(-c3ccc(N4CCC(F)C4)nc3F)nc2CCN1c1cccnc1 (centres unmarked) — brain washout ratio (PET imaging; rhesus monkey, whole brain; baseline: peak over 60 min): 5.4
CC/C=C\C/C=C\C/C=C\C/C=C\C/C=C\CCCCOC(CC)C(=O)O (centres unmarked) — radioactivity concentration ([14C] label; male Wistar rat, subcutaneous fat; oral, 100 mg/kg, 8 h): 15.4 µg equiv/g
CCCC[C@H](NC(=O)[C@H](CC(C)C)N(C)C(=O)CNC(=O)[C@@H](NC(=O)[C@H](Cc1ccccc1)NC(=O)[C@H](CCCCN)NC(=O)[C@@H](N)CC(=O)O)C(C)C)C(N)=O — mean arterial pressure change (anaesthetised Sinclair minipigs; IV, 0.3 µg/kg; baseline: baseline): -11.9 ± 4.04%
O=C(CCc1ccc(CNC(C(=O)O)C2CCCCC2)cn1)NO (centres unmarked) — AUC(0-t) (human, plasma; oral, 20 mg once daily, day 7, geometric mean): 89.4 ng·h/mL
COC(=O)C(c1ccccc1Cl)N1CCC2SC(=O)C=C2C1 (centres unmarked) — measured concentration (LC-MS/MS; human plasma extract; 50 ng/mL spiked, 8 h, room temperature): 50.1 ± 7.6 ng/mL
CC[C@@H](C)N([11CH3])C(=O)c1nc(-c2ccc(Cl)cc2)c2ccccc2n1 — time to 50% parent radioligand (male rhesus monkey, plasma; intravenous, baseline): 69.3 min
CCCC[C@@H]1NC(=O)[C@@H](NC(=O)[C@H](CCC(=O)O)NC(=O)CNC(=O)CN2CCN(CC(=O)O)CCN(CC(=O)O)CCN(CC(=O)O)CC2)CCCCNC(=O)C[C@@H](C(N)=O)NC(=O)[C@H](C(C)C)NC(=O)[C@@H]2CCCN2C(=O)[C@H](CCCNC(=N)N)NC(=O)CNC(=O)[C@H](Cc2c[nH]c3ccccc23)NC(=O)[C@H](CCCNC(=N)N)NC(=O)[C@@H](Cc2ccccc2)NC(=O)[C@H](Cc2c[nH]cn2)NC(=O)[C@H](CCC(=O)O)NC1=O [gallium-67 labelled] — tissue uptake (C57 mice, B16/F10 lung metastatic melanoma, liver; intravenous, 0.037 MBq, 4 h): 0.47 ± 0.1 %ID/g
COC(=O)c1ccc(-c2cn(Cc3cc(Cl)ccc3O[11CH3])nn2)cc1 — distribution volume (PET, one-tissue compartment model; rhesus monkey, brain Putamen; dose not given): 0.634 mL/cm³
NC[C@@H](C(=O)Nc1ccc(-c2cn[nH]c2)cc1)c1ccccc1 — iris score (OECD 405 eye irritation; New Zealand White rabbit, eye; topical, 0.1%, 56 h (day 3), scale 0 to 2; direction not given): 0
COc1ccc2cc(NC(=O)c3cc(-c4cccnc4)nc4ccccc34)ccc2c1 — kcat (Cytochrome P450 3A4 (CYP3A4, Homo sapiens, UniProt P08684); substrate, item: naphthalene-hydroxylated metabolite M2; baculosomes): 0.163 s⁻¹
[11CH3]c1ccc2nc(C3CCC3)n(-c3ccc4[nH]ncc4c3)c2n1 — absorbed radiation dose (human male, lungs): 3.6 µSv/MBq
CCC(=O)N[C@@H](C)C(=O)OCC(=O)N[C@@H](C)C(=O)O — depolymerization half-life (water; pH 4, 50 °C): 281 h
CCCCCCCCCCCCCCCC(=O)N[C@@H](CCCCN)C(=O)N[C@@H](CCCCN)C(=O)N[C@@H](CO)C(=O)N[C@@H](CCCNC(=N)N)C(=O)N[C@@H](C)C(=O)N[C@@H](CC(C)C)C(=O)N[C@@H](Cc1ccccc1)C(N)=O — activated partial thromboplastin time (cynomolgus monkey, male; 30 mg/kg, day 5): 33.7 ± 6.5 s
COc1cc(CNC(=O)C[C@H](C)CCC=C(C)C)ccc1OCc1cn(-c2cccc([N+](=O)[O-])c2)nn1 — growth percent (OVCAR-4 ovarian cancer cells; SRB; 10 µM, 48 h): 63.6%
COc1cc(NC(C)=O)c2c(c1O)-c1c(OC)c(OC)cc3c1C(C2)N(C)CC3 (centres unmarked) — remaining compound (rat lung homogenate; 50 µg/mL, 24 h, room temperature, post-preparative storage): 92.3 ± 4.7%
Cn1c(=O)oc2ccc(-c3ccc(CC(C#N)NC(=O)C4CNCCCO4)c(F)c3)cc21 (centres unmarked) — treatment-related adverse event incidence (item: alanine aminotransferase increased; human volunteers; oral, 40 mg, single ascending dose fed): 0%
CCc1nc(C(N)=O)c(Nc2ccc(N3CCC(N4CCNCC4)CC3)c(OC)c2)nc1NC1CCOCC1 — share of radioactivity (metabolite profiling; human, advanced solid tumours, feces; oral, 120 mg of [14C]-gilteritinib): 6.3 to 10.3%
N#Cc1cc(C(=O)OCC[18F])c(C(F)(F)F)nc1N1CCN(C(=O)Cc2ccccc2)CC1 — peak SUV (dynamic PET; healthy mouse, brain; intravenous, 11.1 MBq): 1.77 ± 0.27
Cc1ccc(C(=O)N[C@@H](CO)CC(C)C)cc1C — metabolite peak area (LC-MS; Sprague-Dawley rat, both sexes, rat liver microsomes; 10 µM of parent drug, 20 min, pH 7.4, added: NADPH; baseline: parent drug at time zero): 1.2%
[64Cu+2].c1cnc(CNCc2ccc(CN3CCCN4CCNCCCN(CC4)CC3)cc2)nc1 — tissue uptake (CXCR4; NOD/SCID mouse, U87 and U87-stb-CXCR4 xenografts, heart; iv, 120 min, ex vivo): 1.81 ± 0.19 %ID/g
CCN(CC)c1ccc2c(-c3ccc(S(=O)(=O)NCCNC(=O)CN4CCN(CC(=O)[O-])CCN(CC(=O)O)CCN(CC(=O)[O-])CC4)cc3S(=O)(=O)[O-])c3ccc(=[N+](CC)CC)cc-3oc2c1.[64Cu+2] — tumour uptake (microPET imaging; athymic nude mice, U-87 MG glioma xenograft; 250 µCi, 4 h post-injection): 9.03 ± 0.95 %ID/g
CCC(C)n1c(C(=O)Nc2cnc(C(=O)NC)n(CC(C)C)c2=O)ncc(NC(=O)c2ncc(NC(=O)c3ccccc3)c(=O)n2Cc2ccc(OC)cc2)c1=O (centres unmarked) — decomposition (HPLC; Tween 20/ethanol/phosphate buffer; 24 h, pH 2, 37 °C): 1.3%
CC(=O)N[C@H](CC(=O)O)C(=O)N[C@H](Cc1c[nH]c2ccccc12)C(=O)N[C@H](Cc1ccccc1)C(=O)N[C@H](CCCCN)C(=O)N[C@H](C)C(=O)N[C@H](Cc1ccccc1)C(=O)N[C@H](Cc1ccc(O)cc1)C(=O)N[C@H](CC(=O)O)C(=O)N[C@H](CCCCN)C(=O)N[C@@H](C(=O)N[C@H](C)C(=O)N[C@H](CCC(=O)O)C(=O)N[C@H](CCCCN)C(=O)N[C@H](Cc1ccccc1)C(=O)N[C@H](CCCCN)C(=O)N[C@H](CCC(=O)O)C(=O)N[C@H](C)C(=O)N[C@H](Cc1ccccc1)C(N)=O)C(C)C — AUC(0-t) (statin-treated high-risk CHD women, plasma; oral, 500 mg daily, day 13, 0 to 8 h, mean, all subjects): 523 ng·h/mL
COc1ccc2cc(-c3ccc(-c4ccc(C)cn4)nc3)oc2c1 — fluorescence quantum yield (MeOH; added: quinine bisulfate reference): 0.79

A few entries again:
COc1cc(N(C)CCN(C)C)c(NC(=O)CCSCC(NC(C)=O)C(=O)O)cc1Nc1nccc(-c2cn(C3CC3)c3ccccc23)n1 (centres unmarked) — share of radioactivity (radio-HPLC; human, feces; dose not given, 0 to 48 h, sample holds 45.32% dose; baseline: sample radioactivity): 2.45%
CC/C=C\C/C=C\C/C=C\C/C=C\C/C=C\CCCCOC(CC)C(=O)O (centres unmarked) — radioactivity concentration ([14C] label; male Wistar rat, subcutaneous fat; oral, 100 mg/kg, 8 h): 15.4 µg equiv/g
CC(=O)N[C@H](CC(=O)O)C(=O)N[C@H](Cc1c[nH]c2ccccc12)C(=O)N[C@H](Cc1ccccc1)C(=O)N[C@H](CCCCN)C(=O)N[C@H](C)C(=O)N[C@H](Cc1ccccc1)C(=O)N[C@H](Cc1ccc(O)cc1)C(=O)N[C@H](CC(=O)O)C(=O)N[C@H](CCCCN)C(=O)N[C@@H](C(=O)N[C@H](C)C(=O)N[C@H](CCC(=O)O)C(=O)N[C@H](CCCCN)C(=O)N[C@H](Cc1ccccc1)C(=O)N[C@H](CCCCN)C(=O)N[C@H](CCC(=O)O)C(=O)N[C@H](C)C(=O)N[C@H](Cc1ccccc1)C(N)=O)C(C)C — AUC(0-t) (statin-treated high-risk CHD women, plasma; oral, 500 mg daily, day 13, 0 to 8 h, mean, all subjects): 523 ng·h/mL
COc1ccc2cc(-c3ccc(-c4ccc(C)cn4)nc3)oc2c1 — fluorescence quantum yield (MeOH; added: quinine bisulfate reference): 0.79
